Measured values from different studies.
Each numbered part is a random draw from the data of one study; scales do not carry over between parts. Substitutions count along the parent as printed.
Sequence of UniProt Q9P0G3 (whole entry, looked up): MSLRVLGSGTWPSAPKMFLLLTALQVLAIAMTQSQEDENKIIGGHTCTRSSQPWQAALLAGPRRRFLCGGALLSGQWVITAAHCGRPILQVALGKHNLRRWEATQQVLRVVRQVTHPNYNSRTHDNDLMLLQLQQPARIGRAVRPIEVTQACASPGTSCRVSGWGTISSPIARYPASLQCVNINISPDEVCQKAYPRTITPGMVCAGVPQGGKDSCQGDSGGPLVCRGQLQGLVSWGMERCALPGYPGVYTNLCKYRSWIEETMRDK
Sequence of UniProt P62344 (whole entry, looked up): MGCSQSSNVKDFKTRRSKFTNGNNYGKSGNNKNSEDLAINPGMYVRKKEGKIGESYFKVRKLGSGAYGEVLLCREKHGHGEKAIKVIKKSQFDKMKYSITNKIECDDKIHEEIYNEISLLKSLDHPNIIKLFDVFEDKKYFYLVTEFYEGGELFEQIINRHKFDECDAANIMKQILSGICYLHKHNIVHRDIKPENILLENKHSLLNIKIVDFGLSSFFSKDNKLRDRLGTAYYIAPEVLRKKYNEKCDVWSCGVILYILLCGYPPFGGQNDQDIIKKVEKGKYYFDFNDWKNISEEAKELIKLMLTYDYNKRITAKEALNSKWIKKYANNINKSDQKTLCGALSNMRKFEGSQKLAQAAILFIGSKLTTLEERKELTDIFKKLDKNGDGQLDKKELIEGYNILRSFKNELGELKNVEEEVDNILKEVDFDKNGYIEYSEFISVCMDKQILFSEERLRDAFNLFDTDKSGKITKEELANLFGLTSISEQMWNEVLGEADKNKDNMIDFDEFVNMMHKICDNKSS

Series 1 — effect on: peptide-MHC binding; molecule type: peptide; concentration: concentration not given; quantity: binding
Target: HLA class I histocompatibility antigen, A alpha chain, allele A*80:01 (Homo sapiens, UniProt P04439)
VTECKLIYY: inactive
QQRPDLILV: inactive
RRAYSGKQY: inactive
FRYEFTAPF: inactive
TFMDHVLRY: inactive
YMKFFGNFK: inactive
EVDQTKIQY: inactive
KLLARFLFE: inactive

Series 2 — organism: VSV pseudotyped with VSV-G; effect on: viral infection; concentration: concentration not given; reference: vehicle; quantity: GFP-positive cells
Sucralfate: 136%
maraviroc: 91.1%
bleomycin sulfate: 145%

Series 3 — target: CCNB2, cyclin fold, Cln2 fusion (human); technique: yeast growth competition, sequencing; medium: yeast; setting: strong parent motif; reference: not given; reading: higher = stronger binding; quantity: normalised enrichment score; starting sequence: viral docking peptide; YKVKRRLVFGADD
R6C: 0.707
F9Y: 1.16
A11T: 1.97
K4W: 0.522
K2D: 2.53
V8Q: 1.22
A11G: 1.84
R5H: 0.194

Other studies, line by line
CC(=O)c1c(NS(C)(=O)=O)c2cc(-c3ccc(Cl)cc3)c(-c3ccc(Cl)cc3Cl)nc2n(C)c1=O — remaining binding (CDPK1 (Plasmodium falciparum, UniProt P62344); cell-free assay, competition with immobilised ligand; 1 µM): 99%
CC(C)n1cnc(-c2ccc(F)cc2)c1-c1ncc(C(=O)Nc2ccc(N3CCN(C)CC3)cc2)[nH]1 — patients with TEAEs (phase 2a clinical trial, refers to: influenza-like illness; idiopathic pulmonary fibrosis patients; dose not given, grade 2, all drug arms; reference: patients): 1%
CCOc1ccc(Nc2c3c(nc4ccccc24)CCC3)cc1 — inhibition (Leishmania donovani; THP-1 intracellular amastigotes, DD8 resistant line; 20 µM, resistance confirmation): 84%
CCOC(=O)c1ccc(OC(=O)CCCCCNC(=N)N)cc1 — IC50 (Kallikrein-14 (Homo sapiens, UniProt Q9P0G3)): 314 nM

A few entries again (series 2):
maraviroc: 91.1%
bleomycin sulfate: 145%
Sucralfate: 136%
